Measurements from different studies.
A part holds a random share of what one study measured.
Sequence of UniProt P42336 (whole entry, unmodified, looked up): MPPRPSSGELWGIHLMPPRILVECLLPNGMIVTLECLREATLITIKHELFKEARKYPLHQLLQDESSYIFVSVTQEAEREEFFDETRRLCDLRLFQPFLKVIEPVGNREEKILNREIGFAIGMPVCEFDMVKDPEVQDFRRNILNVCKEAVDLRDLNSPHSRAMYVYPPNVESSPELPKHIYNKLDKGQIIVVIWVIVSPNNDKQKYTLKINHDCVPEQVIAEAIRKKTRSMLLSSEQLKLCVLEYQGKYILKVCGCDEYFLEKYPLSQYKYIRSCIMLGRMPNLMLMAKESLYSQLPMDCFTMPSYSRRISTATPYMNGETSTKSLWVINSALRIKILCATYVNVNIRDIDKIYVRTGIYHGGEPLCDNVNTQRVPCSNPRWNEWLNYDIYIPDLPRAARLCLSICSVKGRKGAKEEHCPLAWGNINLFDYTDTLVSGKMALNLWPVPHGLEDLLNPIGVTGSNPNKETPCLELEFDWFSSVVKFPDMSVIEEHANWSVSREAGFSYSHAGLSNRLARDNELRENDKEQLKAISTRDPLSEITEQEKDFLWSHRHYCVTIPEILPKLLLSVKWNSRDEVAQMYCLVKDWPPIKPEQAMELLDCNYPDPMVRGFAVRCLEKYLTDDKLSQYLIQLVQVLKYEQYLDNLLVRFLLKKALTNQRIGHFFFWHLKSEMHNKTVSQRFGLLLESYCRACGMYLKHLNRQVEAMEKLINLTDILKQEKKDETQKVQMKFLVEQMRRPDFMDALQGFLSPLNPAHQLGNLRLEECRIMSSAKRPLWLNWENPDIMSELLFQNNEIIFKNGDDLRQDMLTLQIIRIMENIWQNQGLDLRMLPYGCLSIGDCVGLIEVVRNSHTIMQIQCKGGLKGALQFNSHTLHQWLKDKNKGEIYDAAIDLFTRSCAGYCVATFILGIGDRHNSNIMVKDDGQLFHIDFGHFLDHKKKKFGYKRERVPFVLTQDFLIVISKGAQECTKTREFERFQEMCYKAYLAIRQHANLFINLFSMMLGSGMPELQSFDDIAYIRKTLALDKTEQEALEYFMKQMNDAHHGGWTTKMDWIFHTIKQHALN
Sequence of UniProt P23458 (whole entry, looked up): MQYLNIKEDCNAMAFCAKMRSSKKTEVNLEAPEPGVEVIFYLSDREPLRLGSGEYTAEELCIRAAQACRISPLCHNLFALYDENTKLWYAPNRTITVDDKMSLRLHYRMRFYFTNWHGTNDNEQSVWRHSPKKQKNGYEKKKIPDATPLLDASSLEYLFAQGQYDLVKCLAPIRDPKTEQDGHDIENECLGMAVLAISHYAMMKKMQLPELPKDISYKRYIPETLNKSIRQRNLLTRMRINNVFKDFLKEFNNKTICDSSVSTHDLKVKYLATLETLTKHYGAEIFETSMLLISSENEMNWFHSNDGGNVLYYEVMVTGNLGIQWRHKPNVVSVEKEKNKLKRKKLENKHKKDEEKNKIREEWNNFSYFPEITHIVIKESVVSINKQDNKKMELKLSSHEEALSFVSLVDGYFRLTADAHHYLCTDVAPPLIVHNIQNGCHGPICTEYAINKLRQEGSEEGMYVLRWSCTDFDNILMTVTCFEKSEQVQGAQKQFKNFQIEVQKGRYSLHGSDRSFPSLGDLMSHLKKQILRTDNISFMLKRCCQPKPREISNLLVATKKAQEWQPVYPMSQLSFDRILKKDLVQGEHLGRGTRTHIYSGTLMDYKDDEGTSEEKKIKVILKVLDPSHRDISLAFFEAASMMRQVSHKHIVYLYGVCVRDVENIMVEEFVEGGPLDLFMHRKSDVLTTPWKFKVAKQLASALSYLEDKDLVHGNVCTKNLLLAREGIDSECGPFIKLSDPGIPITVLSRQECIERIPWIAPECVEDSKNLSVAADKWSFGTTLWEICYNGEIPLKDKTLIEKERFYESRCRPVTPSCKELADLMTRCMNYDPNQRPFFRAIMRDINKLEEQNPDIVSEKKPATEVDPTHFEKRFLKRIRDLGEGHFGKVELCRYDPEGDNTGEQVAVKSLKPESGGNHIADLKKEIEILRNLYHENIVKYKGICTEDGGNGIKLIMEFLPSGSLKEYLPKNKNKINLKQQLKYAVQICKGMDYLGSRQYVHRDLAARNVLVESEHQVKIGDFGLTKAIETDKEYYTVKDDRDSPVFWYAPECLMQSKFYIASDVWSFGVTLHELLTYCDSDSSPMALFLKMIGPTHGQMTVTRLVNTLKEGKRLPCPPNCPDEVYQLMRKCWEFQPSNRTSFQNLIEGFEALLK
Sequence of UniProt P35410 (whole entry, looked up): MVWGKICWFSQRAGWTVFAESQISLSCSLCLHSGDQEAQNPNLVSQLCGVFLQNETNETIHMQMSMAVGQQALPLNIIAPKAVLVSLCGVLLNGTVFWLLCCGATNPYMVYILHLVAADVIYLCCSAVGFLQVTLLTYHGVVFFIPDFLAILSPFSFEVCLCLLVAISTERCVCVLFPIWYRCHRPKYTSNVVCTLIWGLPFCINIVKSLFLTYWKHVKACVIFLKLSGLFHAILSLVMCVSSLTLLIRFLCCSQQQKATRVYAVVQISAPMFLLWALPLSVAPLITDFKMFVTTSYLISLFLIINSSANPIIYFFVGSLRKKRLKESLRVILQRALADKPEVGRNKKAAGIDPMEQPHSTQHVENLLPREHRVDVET
Sequence of UniProt Q15759 (whole entry, looked up): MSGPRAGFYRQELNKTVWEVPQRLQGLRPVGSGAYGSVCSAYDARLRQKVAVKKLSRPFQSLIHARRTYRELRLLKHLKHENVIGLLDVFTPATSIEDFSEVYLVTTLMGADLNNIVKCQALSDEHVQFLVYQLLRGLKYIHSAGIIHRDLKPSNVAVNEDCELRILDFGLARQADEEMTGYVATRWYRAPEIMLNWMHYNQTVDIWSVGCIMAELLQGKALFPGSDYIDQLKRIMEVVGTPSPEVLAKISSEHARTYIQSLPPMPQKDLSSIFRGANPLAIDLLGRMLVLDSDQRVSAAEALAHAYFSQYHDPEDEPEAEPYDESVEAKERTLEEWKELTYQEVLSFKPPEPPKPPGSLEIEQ
Sequence of UniProt P06493 (whole entry, looked up): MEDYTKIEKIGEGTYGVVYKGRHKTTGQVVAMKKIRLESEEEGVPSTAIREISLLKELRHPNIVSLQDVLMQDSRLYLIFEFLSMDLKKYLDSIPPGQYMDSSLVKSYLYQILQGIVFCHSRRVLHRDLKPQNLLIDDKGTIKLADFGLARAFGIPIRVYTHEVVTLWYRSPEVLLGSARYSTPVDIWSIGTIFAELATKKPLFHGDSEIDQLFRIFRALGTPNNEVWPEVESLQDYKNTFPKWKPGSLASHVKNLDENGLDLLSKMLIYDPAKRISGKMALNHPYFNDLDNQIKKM
Sequence of UniProt O95819 (whole entry, looked up): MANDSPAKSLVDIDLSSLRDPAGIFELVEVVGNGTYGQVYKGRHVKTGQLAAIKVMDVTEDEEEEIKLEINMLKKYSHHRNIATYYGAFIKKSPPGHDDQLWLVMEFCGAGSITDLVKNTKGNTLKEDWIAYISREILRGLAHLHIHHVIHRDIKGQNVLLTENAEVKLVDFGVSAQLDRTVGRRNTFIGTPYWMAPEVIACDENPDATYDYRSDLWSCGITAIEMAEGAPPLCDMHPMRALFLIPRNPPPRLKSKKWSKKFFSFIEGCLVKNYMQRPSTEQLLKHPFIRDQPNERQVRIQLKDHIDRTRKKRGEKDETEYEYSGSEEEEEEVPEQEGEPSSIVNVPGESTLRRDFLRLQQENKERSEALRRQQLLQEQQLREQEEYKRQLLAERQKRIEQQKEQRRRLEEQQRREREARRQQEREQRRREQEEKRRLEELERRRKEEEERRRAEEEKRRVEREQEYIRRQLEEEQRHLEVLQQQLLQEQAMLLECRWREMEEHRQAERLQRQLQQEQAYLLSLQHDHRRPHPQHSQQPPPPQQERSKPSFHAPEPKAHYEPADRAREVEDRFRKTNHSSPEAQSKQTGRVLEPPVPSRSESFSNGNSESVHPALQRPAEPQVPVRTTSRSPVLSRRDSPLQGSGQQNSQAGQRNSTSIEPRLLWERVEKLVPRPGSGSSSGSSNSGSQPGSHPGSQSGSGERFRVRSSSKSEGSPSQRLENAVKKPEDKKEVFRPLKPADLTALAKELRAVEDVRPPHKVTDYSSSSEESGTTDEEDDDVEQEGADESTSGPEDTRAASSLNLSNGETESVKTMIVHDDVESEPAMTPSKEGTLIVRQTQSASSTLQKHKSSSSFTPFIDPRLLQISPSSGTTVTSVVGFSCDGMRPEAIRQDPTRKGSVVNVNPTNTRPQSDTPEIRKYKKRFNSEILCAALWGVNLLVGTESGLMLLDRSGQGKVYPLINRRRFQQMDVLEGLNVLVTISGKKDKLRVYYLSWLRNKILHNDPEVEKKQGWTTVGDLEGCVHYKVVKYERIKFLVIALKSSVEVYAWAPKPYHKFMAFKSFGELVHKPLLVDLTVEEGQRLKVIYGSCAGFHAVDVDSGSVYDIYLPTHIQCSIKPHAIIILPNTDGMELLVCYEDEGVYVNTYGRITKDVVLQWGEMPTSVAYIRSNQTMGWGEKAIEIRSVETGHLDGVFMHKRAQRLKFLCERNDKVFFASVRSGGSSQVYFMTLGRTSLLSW

Block 1
SMILES: CO[C@@H](C)c1c(Nc2ccc([C@H](N(C)C(=O)C3CCS(=O)(=O)CC3)C(F)(F)F)cc2)cnc2cc(Cl)nn12
Method: competition with immobilised ligand
Concentration: 1 µM
target | read-out | remaining binding [%]
NUAK2 (Homo sapiens, UniProt Q9H093) | cell-free assay | 100
MAPK11 (Homo sapiens, UniProt Q15759) | cell-free assay | 79
KIT (Homo sapiens, UniProt P10721, V559D) | cell-free assay | 100
MAST1 (Homo sapiens, UniProt Q9Y2H9) | binding | 43
MYLK2 (Homo sapiens, UniProt Q9H1R3) | cell-free assay | 83
IRAK1 (Homo sapiens, UniProt P51617) | cell-free assay | 93
PIK3CA (Homo sapiens, UniProt P42336, I800L) | cell-free assay | 55
Tyrosine-protein kinase JAK1, JH1 (JAK1, Homo sapiens, UniProt P23458) | cell-free assay | 91
EGFR (Homo sapiens, UniProt P00533, G719C) | cell-free assay | 100
BMPR2 (Homo sapiens, UniProt Q13873) | cell-free assay | 91
PIK3CA (Homo sapiens, UniProt P42336, H1047L) | cell-free assay | 92
FLT3 (Homo sapiens, UniProt P36888) | cell-free assay | 68
SGK2 (Homo sapiens, UniProt Q9HBY8) | cell-free assay | 91
CDK17 (Homo sapiens, UniProt Q00537) | cell-free assay | 75

Block 2
SMILES: CCN(CC)CCCCN1c2ccccc2Oc2ccc(Cl)cc21
Read-out: enzyme activity
Action: inhibitor
Concentration: 0.5 µM
Baseline: control
target | remaining activity
RPS6KA5 (Homo sapiens, UniProt O75582) | 107%
BLK (Homo sapiens, UniProt P51451) | 106%
CAMK2B (Homo sapiens, UniProt Q13554) | 107%
Cyclin-dependent kinase 6, with cyclin D3 (CDK6, Homo sapiens, UniProt Q00534) | 102%
EPHB1 (Homo sapiens, UniProt P54762) | 110%
PHKG1 (Homo sapiens, UniProt Q16816) | 96.5%
STK16 (Homo sapiens, UniProt O75716) | 95.2%
MAPKAPK3 (Homo sapiens, UniProt Q16644) | 105%
DYRK3 (Homo sapiens, UniProt O43781) | 99%
MAP4K4 (Homo sapiens, UniProt O95819) | 104%
TSSK2 (Homo sapiens, UniProt Q96PF2) | 103%
RPS6KA6 (Homo sapiens, UniProt Q9UK32) | 109%
EPHA4 (Homo sapiens, UniProt P54764) | 91.9%
ABL1 (Homo sapiens, UniProt P00519) | 107%
Cyclin-dependent kinase 1, with cyclin B (CDK1, Homo sapiens, UniProt P06493) | 96.8%
Cyclin-dependent kinase 4, with cyclin D3 (CDK4, Homo sapiens, UniProt P11802) | 102%
SRMS (Homo sapiens, UniProt Q9H3Y6) | 105%
AXL (Homo sapiens, UniProt P30530) | 95.2%
WNK3 (Homo sapiens, UniProt Q9BYP7) | 108%
PDPK1 (Homo sapiens, UniProt O15530) | 111%
STK17A (Homo sapiens, UniProt Q9UEE5) | 96.1%
HIPK4 (Homo sapiens, UniProt Q8NE63) | 99.2%
EPHB4 (Homo sapiens, UniProt P54760) | 97.9%
HIPK2 (Homo sapiens, UniProt Q9H2X6) | 118%

Block 3
Target: Calcium/calmodulin-dependent protein kinase type II subunit alpha (CAMK2A, Homo sapiens, UniProt Q9UQM7)
Sequence of UniProt Q9UQM7 (whole entry, looked up): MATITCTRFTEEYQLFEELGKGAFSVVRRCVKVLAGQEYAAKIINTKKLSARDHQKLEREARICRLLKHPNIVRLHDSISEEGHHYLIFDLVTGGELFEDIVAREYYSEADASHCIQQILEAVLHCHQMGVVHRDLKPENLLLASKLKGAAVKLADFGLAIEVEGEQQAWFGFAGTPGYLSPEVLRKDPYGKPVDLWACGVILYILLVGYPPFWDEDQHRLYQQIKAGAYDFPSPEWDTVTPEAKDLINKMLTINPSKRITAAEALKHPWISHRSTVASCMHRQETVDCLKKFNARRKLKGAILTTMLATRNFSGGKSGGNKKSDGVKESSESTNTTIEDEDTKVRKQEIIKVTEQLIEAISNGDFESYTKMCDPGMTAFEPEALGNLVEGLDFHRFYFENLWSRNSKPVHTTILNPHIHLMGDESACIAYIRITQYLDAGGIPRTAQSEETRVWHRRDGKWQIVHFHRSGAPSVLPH
Read-out: enzyme activity
Action: inhibitor
Concentration: 10 µM
Structure (SMILES) | inhibition [%]
CC[C@@H](C)O | 31
Cn1c[n+]([C@@H]2O[C@H](CO)[C@@H](O)[C@H]2O)c2nc(N)[nH]c(=O)c21 | -26
O=C(O)[C@H]1CCCCN1 | -46
OCc1cn[nH]c1 | -30
O=C(C[S+]([O-])Cc1ccco1)NC/C=C\COc1cc(CN2CCCCC2)ccn1 (stereo not shown) | -4
Nc1ccc(/N=N/c2ccccc2)c(N)n1 | 2
O=C1c2c(O)cccc2[C@@H]([C@@H]2O[C@H](CO)[C@@H](O)[C@H](O)[C@H]2O)c2cc(CO)cc(O)c21 | -9
CC(C(=O)O)c1ccc(-c2ccccc2)c(F)c1 (stereo not shown) | -1
O=c1[nH]c2ccccc2c(-c2cccc(O)c2)c1O | 27
COc1cc(NS(=O)(=O)c2ccc(N)cc2)ncn1 | -6

Block 4
SMILES: CC(C)CN(C)c1nc(N)c(C(=O)N=C(N)N)nc1Cl
Action: agonist
Concentration: 10 µM
Baseline: untreated
target | read-out | method | fold over basal
Probable G-protein coupled receptor 45 (GPR45, Homo sapiens, UniProt Q9Y5Y3) | β-arrestin recruitment | PRESTO-Tango | 1.13
Relaxin receptor 1 (RXFP1, Homo sapiens, UniProt Q9HBX9) | β-arrestin recruitment | PRESTO-Tango | 0.79
CCR10 (Homo sapiens, UniProt P46092) | β-arrestin recruitment | PRESTO-Tango | 0.71
PROKR1 (Homo sapiens, UniProt Q8TCW9) | β-arrestin recruitment | PRESTO-Tango | 1.3
ADRA2C (Homo sapiens, UniProt P18825) | β-arrestin recruitment | PRESTO-Tango | 1.77
HTR2C (Homo sapiens, UniProt P28335) | β-arrestin recruitment | PRESTO-Tango | 0.71
Nociceptin receptor (OPRL1, Homo sapiens, UniProt P41146) |  | PRESTO-Tango arrestin recruitment | 2.87
Retinoic acid-induced protein 3 (GPRC5A, Homo sapiens, UniProt Q8NFJ5) | β-arrestin recruitment | PRESTO-Tango | 0.88
MC4R (Homo sapiens, UniProt P32245) | β-arrestin recruitment | PRESTO-Tango | 1.72
HCRTR2 (Homo sapiens, UniProt O43614) | β-arrestin recruitment | PRESTO-Tango | 0.88 fold
FFAR4 (Homo sapiens, UniProt Q5NUL3) | β-arrestin recruitment | PRESTO-Tango | 1.23
Probable G-protein coupled receptor 148 (GPR148, Homo sapiens, UniProt Q8TDV2) | β-arrestin recruitment | PRESTO-Tango | 1.2
PTGDR2 (Homo sapiens, UniProt Q9Y5Y4) | β-arrestin recruitment | PRESTO-Tango | 1.1
Putative adhesion G protein-coupled receptor F2P (ADGRF2P, Homo sapiens, UniProt Q8IZF7) | β-arrestin recruitment | PRESTO-Tango | 0.64
ADORA1 (Homo sapiens, UniProt P30542) | β-arrestin recruitment | PRESTO-Tango | 0.94
Mas-related G-protein coupled receptor MRG (MAS1L, Homo sapiens, UniProt P35410) | β-arrestin recruitment | PRESTO-Tango | 0.63

Some of these lines once more (block 1):
target | read-out | remaining binding [%]
MAPK11 (Homo sapiens, UniProt Q15759) | cell-free assay | 79
KIT (Homo sapiens, UniProt P10721, V559D) | cell-free assay | 100
MAST1 (Homo sapiens, UniProt Q9Y2H9) | binding | 43
MYLK2 (Homo sapiens, UniProt Q9H1R3) | cell-free assay | 83
IRAK1 (Homo sapiens, UniProt P51617) | cell-free assay | 93
PIK3CA (Homo sapiens, UniProt P42336, I800L) | cell-free assay | 55
Tyrosine-protein kinase JAK1, JH1 (JAK1, Homo sapiens, UniProt P23458) | cell-free assay | 91
EGFR (Homo sapiens, UniProt P00533, G719C) | cell-free assay | 100
BMPR2 (Homo sapiens, UniProt Q13873) | cell-free assay | 91
PIK3CA (Homo sapiens, UniProt P42336, H1047L) | cell-free assay | 92
FLT3 (Homo sapiens, UniProt P36888) | cell-free assay | 68
